Experimental data gathered from unrelated publications.
Compare with care: the assays were run in different laboratories.
Organism: Severe acute respiratory syndrome coronavirus 2

| SMILES | test | system | conditions | IC50 [µM] |
| --- | --- | --- | --- | --- |
| C[C@]12C=CC(=O)C=C1CC[C@@H]1[C@@H]2[C@@H](O)C[C@@]2(C)[C@H]1C[C@H]1OC(c3ccc(Cl)cc3)O[C@]12C(=O)CO (stereo partly shown) | viral replication | VeroE6/TMPRSS2 |  | 7.9 |
| Cc1ccc(N2CC3CC(C2)N3C)cc1C(=O)NC1(c2ccc3c4c(cccc24)C(=O)N3C)CC1 | viral replication | Vero C1008 |  | 0.107 |
| CCCCCc1cc2c(c(O)c1C(=O)O)[C@H]1C=C(C)CC[C@@H]1C(C)(C)O2 | viral replication, imaging | Vero |  | 13.2 |
| C#CCCCOP(=O)(O)Oc1c2c(c(OP(=O)(O)OCCCC#C)c3c1C1CC3c3cc4c(cc31)C1CC4c3ccccc31)C1CC2c2cc3c(cc21)C1CC3c2ccccc21 | viral replication | Caco-2 |  | 48.9 |
| COc1cccc2c1C(=O)c1c(O)c3c(c(O)c1C2=O)C[C@@](O)(C(=O)CO)C[C@@H]3O[C@H]1C[C@H](N)[C@H](O)[C@H](C)O1 | viral replication, inhibitor | Calu-3 | 40 h | 1.17 |
| CCc1ccc(COP(=O)(O)Oc2c3c(c(OP(=O)(O)OCc4ccc(CC)cc4)c4c2C2CC4c4cc5c(cc42)C2CC5c4ccccc42)C2CC3c3cc4c(cc32)C2CC4c3ccccc32)cc1 | viral replication | Caco-2 |  | 0.6 |
| Cc1ccc(N2CC(N3CCC(C)(O)CC3)C2)cc1C(=O)NC1(c2ccc3c4c(cccc24)C(=O)N3C)CC1 | viral replication | Vero C1008 |  | 0.0786 |
| CC(=O)NCCCCCCCCCC1O[C@@H]2C[C@H]3[C@@H]4CCC5=CC(=O)C=C[C@]5(C)[C@H]4[C@@H](O)C[C@]3(C)[C@]2(C(=O)CO)O1 (stereo partly shown) | viral replication | VeroE6/TMPRSS2 |  | 5.7 |
| CC(=O)[C@]1(O)Cc2c(O)c3c(c(O)c2[C@@H](O[C@H]2C[C@H](N)[C@H](O)[C@H](C)O2)C1)C(=O)c1ccccc1C3=O | viral replication, inhibitor | Calu-3 | 40 h | 0.061 |
| C=CCCCOP(=O)(O)Oc1c2c(c(OP(=O)(O)OCCCC=C)c3c1C1CC3c3cc4c(cc31)C1CC4c3ccccc31)C1CC2c2cc3c(cc21)C1CC3c2ccccc21 | viral replication | Caco-2 |  | 19.9 |
| CC(=O)OCCCCCCCCCC1O[C@@H]2C[C@H]3[C@@H]4CCC5=CC(=O)C=C[C@]5(C)[C@H]4[C@@H](O)C[C@]3(C)[C@]2(C(=O)CO)O1 (stereo partly shown) | viral replication, inhibitor | VeroE6/TMPRSS2 | 24 h | 6.9 |
| C#CCC(C)OP(=O)(O)Oc1c2c(c(OP(=O)(O)OC(C)CC#C)c3c1C1CC3c3cc4c(cc31)C1CC4c3ccccc31)C1CC2c2cc3c(cc21)C1CC3c2ccccc21 (stereo not shown) | viral replication | Caco-2 |  | 97 |
| CNCCN(C)c1ccc(Nc2cc(NC3CC3)n3ncc(C#N)c3n2)cc1NC(C)=O | viral replication, inhibitor | HAE |  | 0.2 to 0.3 |
| CCN(CCO)CCCC(C)Nc1ccnc2cc(Cl)ccc12 (stereo not shown) | viral replication | Vero |  | 2.8 |
| C[C@]12C=CC(=O)C=C1CC[C@@H]1[C@@H]2[C@@H](O)C[C@@]2(C)[C@H]1C[C@H]1OC(CCCCCCCCCN=[N+]=[N-])O[C@]12C(=O)CO (stereo partly shown) | viral replication, inhibitor | VeroE6/TMPRSS2 | 24 h | 7.1 |
| CCN(CC)CCOC1CCC2(C)C(=CCC3C4CCC(=O)C4(C)CCC32)C1 (stereo not shown) | cytopathic effect | Vero C1008 | 72 h | ~0.17 |
| C[C@]12C=CC(=O)C=C1CC[C@@H]1[C@@H]2[C@@H](O)C[C@@]2(C)[C@H]1C[C@H]1OC(c3ccccc3Cl)O[C@]12C(=O)CO (stereo partly shown) | viral replication | VeroE6/TMPRSS2 |  | 8.7 |
| O=P(O)(OCc1ccccc1)Oc1c2c(c(OP(=O)(O)OCc3ccccc3)c3c1C1CC3c3cc4c(cc31)C1CC4c3ccccc31)C1CC2c2cc3c(cc21)C1CC3c2ccccc21 | viral replication | Caco-2 |  | 8.5 |
| CCCCCCC1O[C@@H]2C[C@H]3[C@@H]4CCC5=CC(=O)C=C[C@]5(C)[C@H]4[C@@H](O)C[C@]3(C)[C@]2(C(=O)CO)O1 (stereo partly shown) | viral replication, inhibitor | VeroE6/TMPRSS2 | 24 h | 5.7 |
| O=C(O[C@@H]1[C@@H](O)[C@H](Oc2cc(O)c3c(c2)O[C@H](c2ccccc2)CC3=O)O[C@@H]2COC(=O)c3cc(O)c(O)c(O)c3-c3c(cc(O)c(O)c3O)C(=O)O[C@@H]12)c1cc(O)c(O)c(O)c1 | viral replication, inhibitor | Vero C1008 | 24 h | 4.9 |
| CN(C)CCOc1ccc(/C(=C(/CCCl)c2ccccc2)c2ccccc2)cc1 | viral replication, inhibitor | A549-ACE2 |  | 1 |
| C#CCCCCOP(=O)(O)Oc1c2c(c(OP(=O)(O)OCCCCC#C)c3c1C1CC3c3cc4c(cc31)C1CC4c3ccccc31)C1CC2c2cc3c(cc21)C1CC3c2ccccc21 | viral replication | Caco-2 |  | 64.9 |
| CCCC/C=C/C(=O)N[C@@H](Cc1csc2ccccc12)C(=O)N[C@H]1COC(=O)[C@@H]2C[C@@H](C)CN2C(=O)[C@H](C)NC(=O)[C@@H]2CCCCN2C(=O)[C@@H]2CCCN2C1=O | viral replication, inhibitor, luciferase |  | 24 h, replicon | 11.4 |
| O=P(O)(OCCc1ccccc1)Oc1c2c(c(OP(=O)(O)OCCc3ccccc3)c3c1C1CC3c3cc4c(cc31)C1CC4c3ccccc31)C1CC2c2cc3c(cc21)C1CC3c2ccccc21 | viral replication | Caco-2 |  | 1.8 |
| C[C@]12C=CC(=O)C=C1CC[C@@H]1[C@@H]2[C@@H](O)C[C@@]2(C)[C@H]1C[C@H]1OC(C3CCCC3)O[C@]12C(=O)CO (stereo partly shown) | viral replication, inhibitor | VeroE6/TMPRSS2 | 24 h | 16 |

Excerpt of the above:
| SMILES | test | system | conditions | IC50 [µM] |
| --- | --- | --- | --- | --- |
| CNCCN(C)c1ccc(Nc2cc(NC3CC3)n3ncc(C#N)c3n2)cc1NC(C)=O | viral replication, inhibitor | HAE |  | 0.2 to 0.3 |
| CN(C)CCOc1ccc(/C(=C(/CCCl)c2ccccc2)c2ccccc2)cc1 | viral replication, inhibitor | A549-ACE2 |  | 1 |
| O=P(O)(OCCc1ccccc1)Oc1c2c(c(OP(=O)(O)OCCc3ccccc3)c3c1C1CC3c3cc4c(cc31)C1CC4c3ccccc31)C1CC2c2cc3c(cc21)C1CC3c2ccccc21 | viral replication | Caco-2 |  | 1.8 |
